{"data": "Measurements of several laboratories", "note": "Parts stem from different laboratories: compare values within a part only. Several values in a cell are separate wells, animals, samples, runs or records.", "UniProt Q99640, sequence (whole entry, looked up)": "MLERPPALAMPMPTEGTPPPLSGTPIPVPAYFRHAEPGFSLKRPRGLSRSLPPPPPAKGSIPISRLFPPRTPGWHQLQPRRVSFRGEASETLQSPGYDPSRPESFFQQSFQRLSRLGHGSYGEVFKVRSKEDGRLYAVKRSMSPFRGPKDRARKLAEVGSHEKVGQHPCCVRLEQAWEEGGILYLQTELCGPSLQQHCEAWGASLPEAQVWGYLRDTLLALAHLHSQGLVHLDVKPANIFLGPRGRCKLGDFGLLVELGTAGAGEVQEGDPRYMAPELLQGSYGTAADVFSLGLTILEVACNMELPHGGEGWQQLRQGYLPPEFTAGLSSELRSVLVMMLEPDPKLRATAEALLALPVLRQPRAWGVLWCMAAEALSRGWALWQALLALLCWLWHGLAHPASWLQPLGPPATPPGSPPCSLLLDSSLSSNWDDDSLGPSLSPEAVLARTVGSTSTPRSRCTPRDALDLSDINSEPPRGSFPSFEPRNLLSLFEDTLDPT"}
{"data": "Study 1", "cell line": "MDA-MB-468", "effect on": "cell viability", "technique": "CellCounting-Lite", "concentration": "24.69 nM", "temperature": "37 °C", "direction": "higher = more viable cells"}
{"Compound": "Cn1cc(-n2cnc3c(NCc4nc5cc(Cl)c(Cl)cc5[nH]4)nc(N4CCNCC4)nc32)cn1", "luminescence signal": "204000 a.u. and 230000 a.u. and 217000 a.u."}
{"Compound": "CCn1cnc2c(NCc3nc4cc(Cl)c(Cl)cc4[nH]3)nc(N3CCC(NC(C)=O)CC3)nc21", "luminescence signal": "438000 a.u. and 446000 a.u. and 417000 a.u."}
{"Compound": "CCCCOc1nc(NCc2nc3cc(Cl)c(Cl)cc3[nH]2)c2ncn(CC)c2n1", "luminescence signal": "500000 a.u. and 450000 a.u. and 398000 a.u."}
{"Compound": "CCn1cnc2c(NCc3nc4cc(Cl)c(Cl)cc4[nH]3)nc(N3CCN(C(=O)CNC(C)=O)CC3)nc21", "luminescence signal": "79600 a.u. and 78600 a.u. and 61600 a.u."}
{"Compound": "CCn1cnc2c(NCc3nc4cc(Cl)c(Cl)cc4[nH]3)nc(N3CCN(S(C)(=O)=O)CC3)nc21", "luminescence signal": "223000 a.u. and 183000 a.u. and 232000 a.u."}
{"Compound": "CCn1cnc2c(NCc3nc4cc(F)c(F)cc4[nH]3)nc(N3CCn4ncnc4C3)nc21", "luminescence signal": "393000 a.u. and 419000 a.u."}
{"Compound": "CCn1cnc2c(NCc3nc4cc(Cl)c(Cl)cc4[nH]3)nc(N3CCN(C(=O)[C@H](C)NC(C)=O)CC3)nc21", "luminescence signal": "218000 a.u. and 221000 a.u. and 257000 a.u."}
{"Compound": "CC(=O)N1CCN(c2nc(NCc3nc4cc(Cl)c(Cl)cc4[nH]3)c3ncn(C)c3n2)CC1", "luminescence signal": "465000 a.u. and 375000 a.u. and 424000 a.u."}
{"Compound": "CCn1cnc2c(NCc3nc4cc(Cl)c(Cl)cc4[nH]3)nc(N3CCN(C(=O)c4ccccn4)CC3)nc21", "luminescence signal": "64400 a.u. and 67300 a.u. and 64300 a.u."}
{"Compound": "CCn1cnc2c(NCc3nc4cc(Cl)c(Cl)cc4[nH]3)nc(N3CCn4ncnc4C3)nc21", "luminescence signal": "84200 a.u. and 69500 a.u. and 75800 a.u."}
{"Compound": "CCn1cnc2c(NCc3nc4cc(Cl)c(Cl)cc4[nH]3)nc(N3CCN(C(=O)c4cccnc4)CC3)nc21", "luminescence signal": "56400 a.u. and 57400 a.u. and 65600 a.u."}
{"Compound": "CCn1cnc2c(NCc3nc4cc(Cl)c(Cl)cc4[nH]3)nc(N3CCN(C(=O)c4ccncc4)CC3)nc21", "luminescence signal": "60100 a.u. and 59400 a.u. and 67400 a.u."}
{"Compound": "CCn1cnc2c(NCc3nc4cc(Cl)c(Cl)cc4[nH]3)nc(N3CCN(Cc4ccncc4)CC3)nc21", "luminescence signal": "249000 a.u. and 285000 a.u. and 294000 a.u."}
{"Compound": "CCn1cnc2c(NCc3nc4cc(Cl)c(Cl)cc4[nH]3)nc(N3CCN(c4ccccn4)CC3)nc21", "luminescence signal": "460000 a.u. and 435000 a.u. and 515000 a.u."}
{"Compound": "CCn1cnc2c(NCc3nc4ccc(F)c(F)c4[nH]3)nc(N3CCn4ncnc4C3)nc21", "luminescence signal": "320000 a.u. and 329000 a.u. and 359000 a.u."}
{"Compound": "CC(=O)N1CCN(c2nc(NCc3nc4cc(Cl)c(Cl)cc4[nH]3)c3ncn(-c4cnn(C)c4)c3n2)CC1", "luminescence signal": "289000 a.u. and 333000 a.u. and 361000 a.u."}
{"Compound": "CC(=O)N1CCN(c2nc(NCc3nc4cc(Cl)c(Cl)cc4[nH]3)c3ncn(C(C)C)c3n2)CC1", "luminescence signal": "432000 a.u. and 485000 a.u. and 442000 a.u."}
{"data": "Study 2", "Compound": "Cc1ncsc1-c1ccc(C(CO)NC(=O)C2CC(O)CN2C(=O)C(C(C)C)n2cc(-c3ccc(COc4c(-c5c(C)c(F)cc6[nH]ncc56)c(C5CC5)cc5c(N6CC7CC6CN7)nc(OC6CCOCC6)nc45)cc3)nn2)cc1 (stereo not shown)", "route": "intravenous"}
{"test system": "mouse, PK-59 xenograft, pancreas", "setting": "10 mg/kg, 144 h", "concentration": "2.45 ng/g and 3.08 ng/g and 5.03 ng/g"}
{"test system": "male Balb/c nu/nu mouse (PK-59 xenograft), pancreas", "setting": "30 mg/kg, 24 h", "concentration": "437 ng/g"}
{"test system": "male Balb/c nu/nu mouse, PK-59 xenograft, tumor", "setting": "30 mg/kg, 2 h", "concentration": "1690 ng/g and 1360 ng/g"}
{"test system": "male Balb/c nu/nu mouse, PK-59 xenograft, tumor", "setting": "30 mg/kg, 6 h", "concentration": "1540 ng/g and 420 ng/g and 1120 ng/g"}
{"test system": "mouse, PK-59 xenograft, tumor", "setting": "30 mg/kg, 144 h", "concentration": "1120 ng/g and 771 ng/g and 451 ng/g"}
{"test system": "mouse, PK-59 xenograft, pancreas", "setting": "30 mg/kg, 144 h", "concentration": "17.3 ng/g and 24.1 ng/g"}
{"test system": "mouse (PK-59 xenograft), plasma", "setting": "10 mg/kg, 72 h", "concentration": "3.25 ng/mL and 3.91 ng/mL"}
{"test system": "male Balb/c nu/nu mouse, PK-59 xenograft, tumor", "setting": "10 mg/kg, 6 h", "concentration": "329 ng/g and 223 ng/g"}
{"data": "Study 3", "Compound": "C[C@@H]1CN(c2ccc(-c3cc(C(=O)NCCOCCOCCOCCOCCNC(=O)Cn4cc(-c5[nH]cc(C(=O)N[C@@H](CC(N)=O)c6ccc(F)c(Cl)c6)c5-c5ccc(Cl)cc5F)cn4)ccc3F)cc2NC(=O)c2c[nH]c(=O)cc2C(F)(F)F)C[C@H](C)N1C", "effect on": "thermal unfolding", "technique": "differential scanning fluorimetry", "concentration": "5.5 µM", "direction": "higher = more unfolded", "WDR5": "WD repeat-containing protein 5 (WDR5, Homo sapiens, UniProt P61964)", "DCAF1": "DDB1- and CUL4-associated factor 1 (DCAF1, Homo sapiens, UniProt Q9Y4B6)", "UniProt Q9Y4B6, sequence (whole entry, looked up)": "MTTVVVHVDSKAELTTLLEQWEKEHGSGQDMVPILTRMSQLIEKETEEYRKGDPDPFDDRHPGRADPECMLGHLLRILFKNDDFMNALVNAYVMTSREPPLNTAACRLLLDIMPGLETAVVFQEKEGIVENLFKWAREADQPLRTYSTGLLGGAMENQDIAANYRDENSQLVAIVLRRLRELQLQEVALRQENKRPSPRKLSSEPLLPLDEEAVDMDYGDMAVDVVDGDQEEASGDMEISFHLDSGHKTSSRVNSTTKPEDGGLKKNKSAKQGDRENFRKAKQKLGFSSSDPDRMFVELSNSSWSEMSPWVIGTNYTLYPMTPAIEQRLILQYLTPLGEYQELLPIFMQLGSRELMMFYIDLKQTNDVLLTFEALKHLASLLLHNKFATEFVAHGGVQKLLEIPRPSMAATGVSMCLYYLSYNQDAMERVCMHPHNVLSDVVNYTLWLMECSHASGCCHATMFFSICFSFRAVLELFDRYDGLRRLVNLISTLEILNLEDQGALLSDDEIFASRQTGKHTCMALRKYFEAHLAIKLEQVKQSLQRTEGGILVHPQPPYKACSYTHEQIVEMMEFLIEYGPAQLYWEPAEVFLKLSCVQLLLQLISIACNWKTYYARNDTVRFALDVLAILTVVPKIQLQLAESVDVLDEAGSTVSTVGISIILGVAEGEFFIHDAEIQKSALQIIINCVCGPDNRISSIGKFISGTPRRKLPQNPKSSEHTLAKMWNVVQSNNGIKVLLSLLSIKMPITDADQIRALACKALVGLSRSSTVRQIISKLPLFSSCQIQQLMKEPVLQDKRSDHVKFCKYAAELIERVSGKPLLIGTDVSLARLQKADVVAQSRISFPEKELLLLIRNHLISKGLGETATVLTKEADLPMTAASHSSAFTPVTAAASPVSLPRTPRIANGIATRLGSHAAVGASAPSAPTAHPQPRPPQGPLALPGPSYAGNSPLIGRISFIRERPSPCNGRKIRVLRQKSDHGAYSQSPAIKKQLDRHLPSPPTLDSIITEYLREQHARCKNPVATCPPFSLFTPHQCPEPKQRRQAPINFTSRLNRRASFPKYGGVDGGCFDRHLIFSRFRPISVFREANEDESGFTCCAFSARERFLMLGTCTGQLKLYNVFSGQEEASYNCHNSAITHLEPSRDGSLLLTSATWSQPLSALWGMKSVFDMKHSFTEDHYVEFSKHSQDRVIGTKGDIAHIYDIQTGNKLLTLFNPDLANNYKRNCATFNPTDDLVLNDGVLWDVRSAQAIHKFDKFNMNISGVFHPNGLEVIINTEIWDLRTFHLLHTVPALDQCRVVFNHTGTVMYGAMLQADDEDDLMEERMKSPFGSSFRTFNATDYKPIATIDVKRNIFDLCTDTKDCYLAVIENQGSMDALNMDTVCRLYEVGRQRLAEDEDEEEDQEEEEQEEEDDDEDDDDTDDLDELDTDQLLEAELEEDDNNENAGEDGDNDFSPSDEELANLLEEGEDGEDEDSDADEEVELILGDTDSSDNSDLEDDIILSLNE"}
{"target": "WDR5", "setting": "72.61 °C", "SYPRO Orange fluorescence [a.u.]": 8050}
{"target": "WDR5", "setting": "43.4 °C", "SYPRO Orange fluorescence [a.u.]": 14400}
{"target": "WDR5", "setting": "76.81 °C", "SYPRO Orange fluorescence [a.u.]": 14400}
{"target": "DCAF1", "setting": "56.61 °C", "SYPRO Orange fluorescence [a.u.]": 23600}
{"target": "WDR5", "setting": "76.41 °C", "SYPRO Orange fluorescence [a.u.]": 13600}
{"target": "WDR5", "setting": "87.21 °C", "SYPRO Orange fluorescence [a.u.]": 43100}
{"target": "WDR5", "setting": "26.2 °C", "SYPRO Orange fluorescence [a.u.]": 14700}
{"target": "WDR5", "setting": "57.41 °C", "SYPRO Orange fluorescence [a.u.]": 12300}
{"target": "DCAF1", "setting": "71.21 °C", "SYPRO Orange fluorescence [a.u.]": 53200}
{"target": "WDR5", "setting": "57.61 °C", "SYPRO Orange fluorescence [a.u.]": 12200}
{"target": "DCAF1", "setting": "70.61 °C", "SYPRO Orange fluorescence [a.u.]": 53800}
{"data": "Single results of other studies"}
{"SMILES": "Cc1ccc(O)c(C)c1-c1cnc2[nH]c(-c3cnc(N4CCC5(CC4)CC(N4CCN(c6ccc(N[C@H]7CCC(=O)NC7=O)cc6F)CC4)CO5)nc3)cc2c1C#N (single isomer, unassigned)", "target or system": "HCC1569", "assay": "CDK1 Thr14 phosphorylation, Jess immunoblot", "setting": "100 nM, 24 h then washout", "measurement": "duration of inhibition after washout", "value": "≥ 24 h"}
{"SMILES": "Cc1ccc(O)c(C)c1-c1cnc2[nH]c(-c3cnc(N4CCC(CN5CCN(c6ccc(NC7CCC(=O)NC7=O)c(F)c6)CC5)CC4)nc3)cc2c1C#N (racemic)", "target or system": "HCC1569", "assay": "in-cell western, measured: CDK1 phospho-Thr14", "measurement": "IC80", "value": "194 nM"}
{"SMILES": "Cc1ncc(-c2cc3c(C#N)c(-c4c(C)ccc(O)c4C)cnc3[nH]2)cn1", "test system": "male Sprague-Dawley rat, plasma", "setting": "intravenous", "measurement": "clearance", "value": "63.6 mL/min/kg"}
{"SMILES": "Cc1ccc(O)c(C)c1-c1cnc2[nH]c(-c3cnc(N4CCC(CN5CCN(c6ccc7c(c6)C(=O)N(C6CCC(=O)NC6=O)C7=O)CC5)CC4)nc3)cc2c1C#N (stereo not shown)", "target or system": "PKMYT1 (Homo sapiens, UniProt Q99640)", "assay": "immunoblotting", "test system": "HCC1569", "setting": "1 µM, 16 h", "measurement": "remaining protein level", "value": "9.06%"}
{"note": "Some of these lines once more (study 2):"}
{"test system": "male Balb/c nu/nu mouse, PK-59 xenograft, tumor", "setting": "30 mg/kg, 2 h", "concentration": "1690 ng/g and 1360 ng/g"}
{"test system": "male Balb/c nu/nu mouse, PK-59 xenograft, tumor", "setting": "30 mg/kg, 6 h", "concentration": "1540 ng/g and 420 ng/g and 1120 ng/g"}
{"test system": "mouse, PK-59 xenograft, tumor", "setting": "30 mg/kg, 144 h", "concentration": "1120 ng/g and 771 ng/g and 451 ng/g"}
{"test system": "mouse, PK-59 xenograft, pancreas", "setting": "30 mg/kg, 144 h", "concentration": "17.3 ng/g and 24.1 ng/g"}
{"test system": "mouse (PK-59 xenograft), plasma", "setting": "10 mg/kg, 72 h", "concentration": "3.25 ng/mL and 3.91 ng/mL"}
{"test system": "male Balb/c nu/nu mouse, PK-59 xenograft, tumor", "setting": "10 mg/kg, 6 h", "concentration": "329 ng/g and 223 ng/g"}
